Published values pooled from the literature.
Numbered parts are unrelated; each lists some results of a single study. Values joined by “and” are separate records of one study, mostly repeats; a detail may differ.
Sequence of UniProt P08581 (whole entry, looked up): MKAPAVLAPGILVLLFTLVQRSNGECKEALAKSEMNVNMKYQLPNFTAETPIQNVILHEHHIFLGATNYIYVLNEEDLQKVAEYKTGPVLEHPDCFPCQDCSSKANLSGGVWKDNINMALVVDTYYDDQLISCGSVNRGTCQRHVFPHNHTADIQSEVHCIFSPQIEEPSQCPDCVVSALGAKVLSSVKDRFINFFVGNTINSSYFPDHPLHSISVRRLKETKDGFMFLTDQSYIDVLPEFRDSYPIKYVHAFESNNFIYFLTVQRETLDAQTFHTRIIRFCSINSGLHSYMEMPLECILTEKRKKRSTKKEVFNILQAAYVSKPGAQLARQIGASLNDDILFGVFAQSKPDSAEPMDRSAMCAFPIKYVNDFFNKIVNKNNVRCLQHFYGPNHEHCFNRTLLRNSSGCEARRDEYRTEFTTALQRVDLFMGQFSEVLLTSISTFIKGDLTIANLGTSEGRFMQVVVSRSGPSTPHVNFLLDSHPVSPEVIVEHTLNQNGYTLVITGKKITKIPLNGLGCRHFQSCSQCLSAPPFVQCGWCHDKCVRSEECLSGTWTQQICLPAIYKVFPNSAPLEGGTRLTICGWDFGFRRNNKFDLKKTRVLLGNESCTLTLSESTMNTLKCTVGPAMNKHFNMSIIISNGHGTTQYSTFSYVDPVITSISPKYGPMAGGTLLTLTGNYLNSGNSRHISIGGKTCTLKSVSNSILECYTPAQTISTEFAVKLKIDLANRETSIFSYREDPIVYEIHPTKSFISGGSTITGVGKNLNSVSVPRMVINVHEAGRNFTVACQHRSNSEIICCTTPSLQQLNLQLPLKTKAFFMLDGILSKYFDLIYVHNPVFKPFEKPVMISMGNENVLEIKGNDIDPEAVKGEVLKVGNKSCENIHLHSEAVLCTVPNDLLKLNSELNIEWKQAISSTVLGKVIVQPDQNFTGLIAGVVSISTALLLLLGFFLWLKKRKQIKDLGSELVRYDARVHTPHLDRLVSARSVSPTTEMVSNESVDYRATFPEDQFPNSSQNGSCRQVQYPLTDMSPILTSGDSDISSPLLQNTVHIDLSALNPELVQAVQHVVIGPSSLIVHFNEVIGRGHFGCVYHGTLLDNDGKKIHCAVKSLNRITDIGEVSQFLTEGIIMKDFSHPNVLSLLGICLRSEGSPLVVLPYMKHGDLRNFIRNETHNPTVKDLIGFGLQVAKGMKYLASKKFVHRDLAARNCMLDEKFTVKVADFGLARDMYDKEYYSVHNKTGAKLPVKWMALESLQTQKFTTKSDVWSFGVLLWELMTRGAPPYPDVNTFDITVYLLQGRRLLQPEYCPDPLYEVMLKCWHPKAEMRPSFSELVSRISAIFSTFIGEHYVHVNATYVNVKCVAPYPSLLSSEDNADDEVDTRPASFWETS
Sequence of UniProt Q9Y5S2 (whole entry, looked up): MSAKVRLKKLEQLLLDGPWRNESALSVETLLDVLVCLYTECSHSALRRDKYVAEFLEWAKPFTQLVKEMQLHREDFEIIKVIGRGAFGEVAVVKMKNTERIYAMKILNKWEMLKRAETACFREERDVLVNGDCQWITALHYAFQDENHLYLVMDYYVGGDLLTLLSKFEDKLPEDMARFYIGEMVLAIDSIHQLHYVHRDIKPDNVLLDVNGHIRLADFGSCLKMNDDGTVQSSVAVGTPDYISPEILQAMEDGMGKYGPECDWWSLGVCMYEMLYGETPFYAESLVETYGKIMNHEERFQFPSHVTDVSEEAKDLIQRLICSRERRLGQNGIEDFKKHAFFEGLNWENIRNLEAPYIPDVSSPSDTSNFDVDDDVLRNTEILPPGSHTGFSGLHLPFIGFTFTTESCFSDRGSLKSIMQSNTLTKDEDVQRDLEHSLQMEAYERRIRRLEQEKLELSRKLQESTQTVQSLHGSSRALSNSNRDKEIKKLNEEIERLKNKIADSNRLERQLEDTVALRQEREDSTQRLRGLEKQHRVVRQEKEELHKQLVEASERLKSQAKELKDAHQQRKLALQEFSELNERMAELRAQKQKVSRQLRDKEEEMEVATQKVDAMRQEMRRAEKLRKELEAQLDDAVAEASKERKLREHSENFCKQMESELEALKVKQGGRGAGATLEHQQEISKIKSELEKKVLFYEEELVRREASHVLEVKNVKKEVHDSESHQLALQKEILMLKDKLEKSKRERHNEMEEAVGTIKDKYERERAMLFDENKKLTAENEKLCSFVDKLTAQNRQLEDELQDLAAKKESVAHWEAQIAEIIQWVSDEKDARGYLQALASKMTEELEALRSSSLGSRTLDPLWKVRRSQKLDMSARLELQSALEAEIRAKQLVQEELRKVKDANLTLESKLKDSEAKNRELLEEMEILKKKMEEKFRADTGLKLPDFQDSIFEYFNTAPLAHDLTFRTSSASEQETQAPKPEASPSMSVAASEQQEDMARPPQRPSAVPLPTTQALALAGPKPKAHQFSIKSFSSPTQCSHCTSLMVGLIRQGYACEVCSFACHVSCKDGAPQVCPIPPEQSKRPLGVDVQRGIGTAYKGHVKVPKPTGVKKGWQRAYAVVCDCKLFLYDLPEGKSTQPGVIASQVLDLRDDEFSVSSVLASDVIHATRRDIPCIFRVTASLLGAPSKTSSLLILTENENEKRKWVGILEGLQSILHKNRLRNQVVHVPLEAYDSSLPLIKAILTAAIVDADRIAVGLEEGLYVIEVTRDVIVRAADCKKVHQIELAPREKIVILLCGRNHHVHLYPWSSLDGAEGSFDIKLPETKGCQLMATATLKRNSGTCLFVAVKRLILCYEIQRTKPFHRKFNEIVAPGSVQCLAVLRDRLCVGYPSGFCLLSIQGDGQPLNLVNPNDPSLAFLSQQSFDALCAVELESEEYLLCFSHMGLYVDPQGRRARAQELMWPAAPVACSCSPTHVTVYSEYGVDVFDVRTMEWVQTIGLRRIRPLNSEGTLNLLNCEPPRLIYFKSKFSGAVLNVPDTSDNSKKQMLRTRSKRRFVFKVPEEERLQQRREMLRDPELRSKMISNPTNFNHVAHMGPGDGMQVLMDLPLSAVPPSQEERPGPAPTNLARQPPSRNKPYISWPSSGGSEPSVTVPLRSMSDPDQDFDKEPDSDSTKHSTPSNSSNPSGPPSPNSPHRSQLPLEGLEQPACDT
Sequence of UniProt Q7KZI7 (whole entry, looked up): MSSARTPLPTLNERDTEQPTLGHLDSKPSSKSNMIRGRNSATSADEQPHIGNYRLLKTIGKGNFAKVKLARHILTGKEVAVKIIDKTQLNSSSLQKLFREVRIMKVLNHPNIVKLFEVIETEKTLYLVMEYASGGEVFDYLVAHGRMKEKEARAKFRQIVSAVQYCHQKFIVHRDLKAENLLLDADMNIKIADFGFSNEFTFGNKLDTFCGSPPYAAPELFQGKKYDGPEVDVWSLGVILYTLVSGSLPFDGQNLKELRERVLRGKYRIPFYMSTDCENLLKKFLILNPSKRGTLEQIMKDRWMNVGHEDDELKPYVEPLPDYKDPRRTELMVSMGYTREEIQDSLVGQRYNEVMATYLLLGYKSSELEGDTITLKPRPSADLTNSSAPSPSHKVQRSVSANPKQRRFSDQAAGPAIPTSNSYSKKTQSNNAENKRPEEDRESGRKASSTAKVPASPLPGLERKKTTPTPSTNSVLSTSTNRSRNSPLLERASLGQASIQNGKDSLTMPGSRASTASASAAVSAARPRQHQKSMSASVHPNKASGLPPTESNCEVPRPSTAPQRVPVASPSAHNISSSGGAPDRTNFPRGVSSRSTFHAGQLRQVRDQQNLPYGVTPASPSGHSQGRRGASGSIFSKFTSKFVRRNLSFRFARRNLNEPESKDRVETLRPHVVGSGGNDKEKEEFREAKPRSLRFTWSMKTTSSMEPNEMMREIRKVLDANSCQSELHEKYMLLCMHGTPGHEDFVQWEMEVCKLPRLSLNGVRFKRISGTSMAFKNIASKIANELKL
Sequence of UniProt Q02750 (whole entry, looked up): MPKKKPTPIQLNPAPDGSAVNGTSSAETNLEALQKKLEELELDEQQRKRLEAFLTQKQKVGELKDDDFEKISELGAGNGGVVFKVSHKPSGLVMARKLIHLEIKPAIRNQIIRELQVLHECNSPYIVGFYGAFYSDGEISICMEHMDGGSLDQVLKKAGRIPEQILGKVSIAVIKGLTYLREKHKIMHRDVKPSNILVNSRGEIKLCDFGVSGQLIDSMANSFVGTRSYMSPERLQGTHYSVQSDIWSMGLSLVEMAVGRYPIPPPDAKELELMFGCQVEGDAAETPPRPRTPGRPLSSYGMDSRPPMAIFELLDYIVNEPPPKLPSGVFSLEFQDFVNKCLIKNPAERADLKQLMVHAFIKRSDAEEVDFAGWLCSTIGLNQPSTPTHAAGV
Sequence of UniProt P42681 (whole entry, looked up): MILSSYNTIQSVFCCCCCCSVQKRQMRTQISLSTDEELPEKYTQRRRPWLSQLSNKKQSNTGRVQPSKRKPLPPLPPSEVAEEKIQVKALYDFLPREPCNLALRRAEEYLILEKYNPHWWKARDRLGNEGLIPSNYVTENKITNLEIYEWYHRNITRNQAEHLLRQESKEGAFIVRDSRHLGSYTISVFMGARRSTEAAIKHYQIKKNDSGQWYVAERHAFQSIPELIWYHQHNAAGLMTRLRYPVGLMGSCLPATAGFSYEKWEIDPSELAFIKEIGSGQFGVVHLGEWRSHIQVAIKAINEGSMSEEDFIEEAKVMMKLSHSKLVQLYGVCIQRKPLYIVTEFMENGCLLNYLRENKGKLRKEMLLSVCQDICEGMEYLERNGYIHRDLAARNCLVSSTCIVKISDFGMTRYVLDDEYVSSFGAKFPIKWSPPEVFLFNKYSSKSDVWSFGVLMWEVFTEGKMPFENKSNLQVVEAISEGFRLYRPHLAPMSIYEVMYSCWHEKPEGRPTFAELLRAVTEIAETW

Block 1
Target: His6 tag
Technique: AlphaScreen counter screen
Concentration: concentration not given
Quantity: inhibition
O=C(CSc1ccc2nnc(-c3cccc(F)c3)n2n1)NCC1CCCO1 (stereo not drawn): 8.7%
Fc1ccc(-c2[nH]c3ncccc3c2CN2CCOCC2)cc1: 0%
CC(=O)Nc1ccc(NC(=O)CSc2ccc3nnc(-c4cccc(F)c4)n3n2)cc1: 0.5%
COc1ccc2[nH]c([S+]([O-])Cc3ncc(C)c(OC)c3C)nc2c1 (stereo not drawn): -9.35%
CCC(CO)Nc1ccc2ncc(-c3ccc(F)c(Cl)c3)n2n1 (stereo not drawn): 0%

Block 2
Structure (SMILES): N#C/C(=C\c1ccc(O)c(O)c1)C(=O)NCc1ccccc1
Read-out: enzyme activity
Mode: inhibitor
Concentration: 0.5 µM
Relative to: control
Quantity: remaining activity
MAP/microtubule affinity-regulating kinase 4 (MARK4, Homo sapiens, UniProt Q96L34): 104%
Tyrosine-protein kinase TXK (TXK, Homo sapiens, UniProt P42681): 104%
Serine/threonine-protein kinase MRCK beta (CDC42BPB, Homo sapiens, UniProt Q9Y5S2): 103%
Serine/threonine-protein kinase PAK 3 (PAK3, Homo sapiens, UniProt O75914): 101%
Discoidin domain-containing receptor 2 (DDR2, Homo sapiens, UniProt Q16832): 97.2%
Serine/threonine-protein kinase MARK2 (MARK2, Homo sapiens, UniProt Q7KZI7): 88.2%
Calcium/calmodulin-dependent protein kinase type 1B (PNCK, Homo sapiens, UniProt Q6P2M8): 97.1%
Dual specificity protein kinase CLK4 (CLK4, Homo sapiens, UniProt Q9HAZ1): 94%
Dual specificity mitogen-activated protein kinase kinase 1 (MAP2K1, Homo sapiens, UniProt Q02750): 94%
Hepatocyte growth factor receptor (MET, Homo sapiens, UniProt P08581): 98.1%
Serine/threonine-protein kinase Nek3 (NEK3, Homo sapiens, UniProt P51956): 95.1%
Ribosomal protein S6 kinase alpha-4 (RPS6KA4, Homo sapiens, UniProt O75676): 94.2%
Dual specificity protein kinase CLK3 (CLK3, Homo sapiens, UniProt P49761): 125%

Block 3
Cell line: mouse MPNST tumor cells
Technique: high-content nuclear imaging
Refers to: cell number
Concentration: 10 µM
Time: 12 h
Notes: mean of 2 replicates
Relative to: plate mean
Reading: higher = more cells
Quantity: nuclei count
COc1cccc([C@@H](C)NCCCc2ccccc2Cl)c1: 0.0252 z-score
O=C(O)CCNc1cc(N2CCc3ccccc3CC2)nc(-c2ccccn2)n1: 0.452 z-score and -5.67 z-score
O=C1CC2(CCCC2)CC(=O)N1CCCCN1CCN(c2ncccn2)CC1: -0.281 z-score and 0.317 z-score
CC(C)Nc1cccnc1N1CCN(C(=O)c2cc3cc(NS(C)(=O)=O)ccc3[nH]2)CC1: 1.02 z-score and 1.16 z-score

Block 4
Structure (SMILES): O=C(N1CCS(=O)(=O)CC1)N1C[C@H](c2ccc(OC(F)(F)F)cc2)C[C@H](c2nc(C3CC3)no2)C1
Technique: competition with immobilised ligand
Concentration: 1 µM
Quantity: remaining binding
Cyclin-dependent kinase 11B (CDK11B, Homo sapiens, UniProt P21127); cell-free assay: 100%
Tyrosine-protein kinase ABL1, non-phosphorylated (ABL1, Homo sapiens, UniProt P00519, F317I); binding: 80%
Cyclin-dependent kinase-like 1 (CDKL1, Homo sapiens, UniProt Q00532); binding: 100%
Casein kinase I isoform gamma-1 (CSNK1G1, Homo sapiens, UniProt Q9HCP0); cell-free assay: 100%

Block 5
Organism: Plasmodium berghei
Mode: inhibitor
Cells: Huh-7
Strain: liver stage
Concentration: 10 µM
Time: 24 h
Relative to: untreated control
Quantity: infection rate
Cc1cn[nH]c1: 94%
C[C@](N)(Cc1ccc(O)c(O)c1)C(=O)O: 85.1%
CCN(CCO)CCCC(C)Nc1ccnc2cc(Cl)ccc12 (stereo not drawn): 91.5%
CCN(CC)CCNc1ccc(CO)c2sc3ccccc3c(=O)c12: 54.7%

Some of these lines once more (block 2):
Discoidin domain-containing receptor 2 (DDR2, Homo sapiens, UniProt Q16832): 97.2%
Dual specificity protein kinase CLK3 (CLK3, Homo sapiens, UniProt P49761): 125%
Calcium/calmodulin-dependent protein kinase type 1B (PNCK, Homo sapiens, UniProt Q6P2M8): 97.1%
